Published values gathered from unrelated publications.
Lines come from different studies, so protocols differ. ± gives the spread as reported.
Fibroin-modulator-binding protein-1: Fibroin-modulator-binding protein-1 99-193 (Bombyx mori, UniProt Q5FBS0)
SPT15/TOA1/TOA2/SUA7 1-240; 1-286; 1-122; 1-345: SPT15/TOA1/TOA2/SUA7 1-240; 1-286; 1-122; 1-345 (Saccharomyces cerevisiae)
UniProt P27695, sequence (whole entry, unmodified, looked up): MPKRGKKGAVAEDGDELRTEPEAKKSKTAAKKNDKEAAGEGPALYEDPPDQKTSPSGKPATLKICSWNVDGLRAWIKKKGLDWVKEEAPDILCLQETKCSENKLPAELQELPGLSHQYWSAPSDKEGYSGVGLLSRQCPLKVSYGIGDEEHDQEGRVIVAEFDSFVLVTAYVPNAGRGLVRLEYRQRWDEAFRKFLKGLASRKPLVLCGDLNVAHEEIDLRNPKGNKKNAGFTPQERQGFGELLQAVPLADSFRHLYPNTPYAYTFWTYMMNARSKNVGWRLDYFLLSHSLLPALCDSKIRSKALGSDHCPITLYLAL
UniProt P17802, sequence (whole entry, looked up): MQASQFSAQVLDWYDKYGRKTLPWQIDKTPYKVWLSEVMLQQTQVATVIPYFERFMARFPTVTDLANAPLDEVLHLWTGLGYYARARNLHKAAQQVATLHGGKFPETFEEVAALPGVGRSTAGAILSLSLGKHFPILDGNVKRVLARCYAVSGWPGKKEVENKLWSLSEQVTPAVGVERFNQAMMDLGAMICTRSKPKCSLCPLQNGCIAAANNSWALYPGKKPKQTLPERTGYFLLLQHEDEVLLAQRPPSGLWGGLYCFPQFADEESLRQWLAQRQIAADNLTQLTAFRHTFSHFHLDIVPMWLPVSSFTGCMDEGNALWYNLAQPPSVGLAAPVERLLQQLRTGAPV
UniProt P46063, sequence (whole entry, looked up): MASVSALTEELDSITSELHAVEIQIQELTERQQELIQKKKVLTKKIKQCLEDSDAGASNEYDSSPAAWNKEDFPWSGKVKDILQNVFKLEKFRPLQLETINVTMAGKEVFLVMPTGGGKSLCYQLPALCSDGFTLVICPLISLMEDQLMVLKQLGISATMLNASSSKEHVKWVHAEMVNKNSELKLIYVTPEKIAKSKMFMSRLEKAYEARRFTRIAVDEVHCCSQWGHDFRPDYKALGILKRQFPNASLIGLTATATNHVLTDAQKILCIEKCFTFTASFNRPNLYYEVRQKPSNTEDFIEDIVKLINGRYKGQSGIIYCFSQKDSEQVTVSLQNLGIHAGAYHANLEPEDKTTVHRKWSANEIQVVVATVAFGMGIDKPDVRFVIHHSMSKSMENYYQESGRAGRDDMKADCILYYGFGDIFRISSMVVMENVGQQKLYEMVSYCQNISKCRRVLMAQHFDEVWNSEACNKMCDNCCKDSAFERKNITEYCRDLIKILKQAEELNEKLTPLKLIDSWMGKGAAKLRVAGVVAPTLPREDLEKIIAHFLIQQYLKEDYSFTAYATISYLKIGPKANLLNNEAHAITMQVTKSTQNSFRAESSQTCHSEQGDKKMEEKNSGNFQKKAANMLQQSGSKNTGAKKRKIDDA

SVWLRKETRV  binding intensity (human MAGI1-3/6 PDZ construct (MBP fusion); automated holdup; peptide, purified PDZ protein; concentration not given, unit not given; baseline: biotin control resin, higher = stronger binding): 0.355
ACGAACGAACGA (dsDNA)  Kd (Fibroin-modulator-binding protein-1; ITC; double-stranded DNA, one strand shown): 11.2 µM
GGGAGAACUUCGACCAGAAGGACUACCAUCGAACGUACAUUACGCUACUCUCUACCAGCUAUGUGCGCAUACAUGGAUCCUC (ssRNA; 2'-fluoro pyrimidines)  relative binding (integrin alphaV/beta3 31-992/27-718 (Homo sapiens); SPR; RNA; together with: MnCl2 1 mM; higher = more binding): -4.2 RU
GTCGGTCGGTCG (dsDNA)  Kd (Fibroin-modulator-binding protein-1; ITC; double-stranded DNA, one strand shown): 7.39 µM
GGGAGAACUUCGACCAGAAGUAGCUCAUAACGACCAAAACGACCCAGCAGUUCCUUUCGUUAUGUGCGCAUACAUGGAUCCUC (ssRNA; 2'-fluoro pyrimidines)  relative binding (integrin alphaV/beta3 31-992/27-718 (Homo sapiens); SPR; RNA; together with: MnCl2 1 mM; higher = more binding): 21.6 RU
DNA 1 TGGGTGGGTAGGGTGGGTAGGGGAGGAT / DNA 2 ATCCTCCCCTA (DNA; intramolecular parallel G4, 5' overhang, 11-bp duplex)  Kd (REV1 330-833 R434Q (Homo sapiens, UniProt Q9UBZ9); FP; folded DNA; KCl 100 mM): 0.004 ± 0.001 µM
ACCAACCAACCA (dsDNA)  Kd (Fibroin-modulator-binding protein-1; ITC; double-stranded DNA, one strand shown): 2.14 ± 0.231 µM
RNA 1 CCGGGCGGGCGGGAGGGAC / RNA 2 GGCCUCCGGCCCCCCCG (dsRNA (Homo sapiens); duplex with bulges)  K1/2 (APE1 34-318 del1-33 (Homo sapiens, UniProt P27695); fluorescence titration; double-stranded RNA; without Mg2+, together with: none): 780 ± 110 nM
DNA 1 CACTGGCCGTCTTACGGTCGCTCTGCTCGACG / DNA 2 CGACCGTAAGACGGCCAGTG (dsDNA; 20 bp, 3' 12 nt overhang)  Kd (RECQL 63-592 (Homo sapiens, UniProt P46063); fluorescence anisotropy; double-stranded DNA; together with: Mg2+ 3 mM): 0.031 ± 0.00654 µM
TCCTGAAGGGGCGACCTAGCTTGGTCCTATCGTCGTCAAGTCAATCGGTCC (dsDNA; 5'-amino-C6 primer)  Kd (SPT15/TOA1/TOA2/SUA7 1-240; 1-286; 1-122; 1-345; array; double-stranded DNA, one strand shown; TBP:TFIIA:TFIIB ternary complex): 0.00361 ± 0.00104 µM
CTGTAACGGGAGCTAGTGGCTCCATGATCG / CGATCATGGAGCCACGAGCTCCCGTTACAG (dsDNA; blunt; 8-oxoG:2'-fluoro-A mismatch)  K1/2 (mutY full length assumed (Escherichia coli, UniProt P17802); fluorescence polarization; apparent): 7 ± 1 nM
TGCATGCATGCA (dsDNA)  Kd (Fibroin-modulator-binding protein-1; ITC; double-stranded DNA, one strand shown): 1.48 ± 0.1 µM
GGGAGAACUUCGACCAGAAGCACUACGCAAACUCCUUCUGCCUGUGCUUGAAAAACGCAUUAUGUGCGCAUACAUGGAUCCUC (ssRNA; 2'-fluoro pyrimidines)  relative binding (integrin alphaV/beta3 31-992/27-718 (Homo sapiens); SPR; RNA; together with: MnCl2 1 mM; higher = more binding): 24.1 RU
GTTCCTGAAGGGGGGGCGGGGTGGGTATAAAAGGGTCAAGTCAATCGGTCC (dsDNA; 5'-amino-C6 primer)  Kd (SPT15/TOA1/TOA2/SUA7 1-240; 1-286; 1-122; 1-345; array; double-stranded DNA, one strand shown; TBP:TFIIA:TFIIB ternary complex): 0.00329 ± 0.00151 µM
GGGAGAACUUCGACCAGAAGGCUGUGUCUACGUCCGGAUUGGGGACCUGCACGGCCCAUGUAUGUGCGCAUACAUGGAUCCUC (ssRNA; 2'-fluoro pyrimidines)  relative binding (integrin alphaV/beta3 31-992/27-718 (Homo sapiens); SPR; RNA; together with: MnCl2 1 mM; higher = more binding): 260 RU
CTCAGGAATTCCGATAAAGTAATGTGGAGCTCAGTTCAAGTCAATCGGTCC (dsDNA; 5'-amino-C6 primer)  Kd (SPT15/TOA1/TOA2/SUA7 1-240; 1-286; 1-122; 1-345; array; double-stranded DNA, one strand shown; TBP:TFIIA:TFIIB ternary complex): 0.00888 ± 0.00638 µM
GGGAGAACUUCGACCAGAAGUUUCCUAGUCCAUUUUGGCGCACGCGAAUACGGGAGACACUAUGUGCGCAUACAUGGAUCCUC (ssRNA; 2'-fluoro pyrimidines)  relative binding (integrin alphaV/beta3 31-992/27-718 (Homo sapiens); SPR; RNA; together with: MnCl2 1 mM; higher = more binding): 114 RU
CATGCATGCATG (dsDNA)  Kd (Fibroin-modulator-binding protein-1; ITC; double-stranded DNA, one strand shown): 3.97 ± 0.375 µM
CCAACCGGACTTTGGGGCTAGCGTTTAGAAAAGTCTCAAGTCAATCGGTCC (dsDNA; 5'-amino-C6 primer)  Kd (SPT15/TOA1/TOA2/SUA7 1-240; 1-286; 1-122; 1-345; array; double-stranded DNA, one strand shown; TBP:TFIIA:TFIIB ternary complex): 0.00444 ± 0.00199 µM
GGGAGAACUUCGACCAGAAGUUCCUGCCAAUUGAGCACAUUACGCAAAAAAAUUCCCUGCCUAUGUGCGCAUACAUGGAUCCUC (ssRNA; 2'-fluoro pyrimidines)  relative binding (integrin alphaV/beta3 31-992/27-718 (Homo sapiens); SPR; RNA; together with: MnCl2 1 mM; higher = more binding): 29.5 RU
GCAAGCAAGCAA (dsDNA)  Kd (Fibroin-modulator-binding protein-1; ITC; double-stranded DNA, one strand shown): 12.2 µM
CTCAGGAATTCCTGTAAAGTAATGTGGAGCTCAGTTCAAGTCAATCGGTCC (dsDNA; 5'-amino-C6 primer)  Kd (SPT15/TOA1/TOA2/SUA7 1-240; 1-286; 1-122; 1-345; array; double-stranded DNA, one strand shown; TBP:TFIIA:TFIIB ternary complex): 0.00242 ± 0.00032 µM
ATTAATTAATTA (dsDNA)  Kd (Fibroin-modulator-binding protein-1; ITC; double-stranded DNA, one strand shown): 0.805 ± 0.0644 µM
GGGAGAACUUCGACCAGAAGACACAUAACACGCCUUUGGAGCGAUACCUCCAUCAACGAUUAUGUGCGCAUACAUGGAUCCUC (ssRNA; 2'-fluoro pyrimidines)  relative binding (integrin alphaV/beta3 31-992/27-718 (Homo sapiens); SPR; RNA; together with: MnCl2 1 mM; higher = more binding): 239 RU
DNA 1 GATCGATCGATCGATCGATCGATCGATCGATCGATTCAATTCAATCGGTCC / DNA 2 GGACCGATTGACTTGAATCGATCGATCGATCGATCGATCGATCGATCGATC (dsDNA; 5'-amino-C6 primer)  Kd (SPT15/TOA1/TOA2/SUA7 1-240; 1-286; 1-122; 1-345; array; double-stranded DNA; TBP:TFIIA:TFIIB ternary complex): 0.0026 ± 0.00037 µM
GSGAGSETSV  binding intensity (human SCRIB PDZ3-4 tandem (MBP fusion); automated holdup; peptide, crude extract; concentration not given, uncorrected, unit not given; baseline: biotin control resin, higher = stronger binding): 0.861
ATTCCAGTATGGCGTATAAATAAAGGCGAGGAGAATCAAGTCAATCGGTCC (dsDNA; 5'-amino-C6 primer)  Kd (SPT15/TOA1/TOA2/SUA7 1-240; 1-286; 1-122; 1-345; array; double-stranded DNA, one strand shown; TBP:TFIIA:TFIIB ternary complex): 0.0013 ± 0.00021 µM
GGGAGAACUUCGACCAGAAGUACGACUACUUCGGCACAUUACGCGACGAUCGAACCCGCCUAUGUGCGCAUACAUGGAUCCUC (ssRNA; 2'-fluoro pyrimidines)  relative binding (integrin alphaV/beta3 31-992/27-718 (Homo sapiens); SPR; RNA; together with: MnCl2 1 mM; higher = more binding): 47 RU
GTACGTACGTAC (dsDNA)  Kd (Fibroin-modulator-binding protein-1; ITC; double-stranded DNA, one strand shown): 3.87 ± 0.328 µM
GAATTCCTAAAAAGTAATGTGGAGCTCCGTTCGTCTCAAGTCAATCGGTCC (dsDNA; 5'-amino-C6 primer)  Kd (SPT15/TOA1/TOA2/SUA7 1-240; 1-286; 1-122; 1-345; array; double-stranded DNA, one strand shown; TBP:TFIIA:TFIIB ternary complex): 0.00338 ± 0.0007 µM

Repeated from above:
CTCAGGAATTCCTGTAAAGTAATGTGGAGCTCAGTTCAAGTCAATCGGTCC (dsDNA; 5'-amino-C6 primer)  Kd (SPT15/TOA1/TOA2/SUA7 1-240; 1-286; 1-122; 1-345; array; double-stranded DNA, one strand shown; TBP:TFIIA:TFIIB ternary complex): 0.00242 ± 0.00032 µM
GGGAGAACUUCGACCAGAAGGACUACCAUCGAACGUACAUUACGCUACUCUCUACCAGCUAUGUGCGCAUACAUGGAUCCUC (ssRNA; 2'-fluoro pyrimidines)  relative binding (integrin alphaV/beta3 31-992/27-718 (Homo sapiens); SPR; RNA; together with: MnCl2 1 mM; higher = more binding): -4.2 RU
